Measured values pooled from the literature.
Lines come from different studies, so protocols differ. Numbers after ± are the reported error.
Spike glycoprotein: Spike glycoprotein (MERS-CoV, UniProt K9N5Q8)
Spike glycoprotein Beta variant: Spike glycoprotein, Beta variant (Severe acute respiratory syndrome coronavirus 2, UniProt P0DTC2)

Protein sequences, listed by entry. Tags and fused reporters are not part of them. Lines headed by an entry give the natural chain unless they say otherwise; changes in a name come on top.
UniProt Q02294, whole entry, looked up: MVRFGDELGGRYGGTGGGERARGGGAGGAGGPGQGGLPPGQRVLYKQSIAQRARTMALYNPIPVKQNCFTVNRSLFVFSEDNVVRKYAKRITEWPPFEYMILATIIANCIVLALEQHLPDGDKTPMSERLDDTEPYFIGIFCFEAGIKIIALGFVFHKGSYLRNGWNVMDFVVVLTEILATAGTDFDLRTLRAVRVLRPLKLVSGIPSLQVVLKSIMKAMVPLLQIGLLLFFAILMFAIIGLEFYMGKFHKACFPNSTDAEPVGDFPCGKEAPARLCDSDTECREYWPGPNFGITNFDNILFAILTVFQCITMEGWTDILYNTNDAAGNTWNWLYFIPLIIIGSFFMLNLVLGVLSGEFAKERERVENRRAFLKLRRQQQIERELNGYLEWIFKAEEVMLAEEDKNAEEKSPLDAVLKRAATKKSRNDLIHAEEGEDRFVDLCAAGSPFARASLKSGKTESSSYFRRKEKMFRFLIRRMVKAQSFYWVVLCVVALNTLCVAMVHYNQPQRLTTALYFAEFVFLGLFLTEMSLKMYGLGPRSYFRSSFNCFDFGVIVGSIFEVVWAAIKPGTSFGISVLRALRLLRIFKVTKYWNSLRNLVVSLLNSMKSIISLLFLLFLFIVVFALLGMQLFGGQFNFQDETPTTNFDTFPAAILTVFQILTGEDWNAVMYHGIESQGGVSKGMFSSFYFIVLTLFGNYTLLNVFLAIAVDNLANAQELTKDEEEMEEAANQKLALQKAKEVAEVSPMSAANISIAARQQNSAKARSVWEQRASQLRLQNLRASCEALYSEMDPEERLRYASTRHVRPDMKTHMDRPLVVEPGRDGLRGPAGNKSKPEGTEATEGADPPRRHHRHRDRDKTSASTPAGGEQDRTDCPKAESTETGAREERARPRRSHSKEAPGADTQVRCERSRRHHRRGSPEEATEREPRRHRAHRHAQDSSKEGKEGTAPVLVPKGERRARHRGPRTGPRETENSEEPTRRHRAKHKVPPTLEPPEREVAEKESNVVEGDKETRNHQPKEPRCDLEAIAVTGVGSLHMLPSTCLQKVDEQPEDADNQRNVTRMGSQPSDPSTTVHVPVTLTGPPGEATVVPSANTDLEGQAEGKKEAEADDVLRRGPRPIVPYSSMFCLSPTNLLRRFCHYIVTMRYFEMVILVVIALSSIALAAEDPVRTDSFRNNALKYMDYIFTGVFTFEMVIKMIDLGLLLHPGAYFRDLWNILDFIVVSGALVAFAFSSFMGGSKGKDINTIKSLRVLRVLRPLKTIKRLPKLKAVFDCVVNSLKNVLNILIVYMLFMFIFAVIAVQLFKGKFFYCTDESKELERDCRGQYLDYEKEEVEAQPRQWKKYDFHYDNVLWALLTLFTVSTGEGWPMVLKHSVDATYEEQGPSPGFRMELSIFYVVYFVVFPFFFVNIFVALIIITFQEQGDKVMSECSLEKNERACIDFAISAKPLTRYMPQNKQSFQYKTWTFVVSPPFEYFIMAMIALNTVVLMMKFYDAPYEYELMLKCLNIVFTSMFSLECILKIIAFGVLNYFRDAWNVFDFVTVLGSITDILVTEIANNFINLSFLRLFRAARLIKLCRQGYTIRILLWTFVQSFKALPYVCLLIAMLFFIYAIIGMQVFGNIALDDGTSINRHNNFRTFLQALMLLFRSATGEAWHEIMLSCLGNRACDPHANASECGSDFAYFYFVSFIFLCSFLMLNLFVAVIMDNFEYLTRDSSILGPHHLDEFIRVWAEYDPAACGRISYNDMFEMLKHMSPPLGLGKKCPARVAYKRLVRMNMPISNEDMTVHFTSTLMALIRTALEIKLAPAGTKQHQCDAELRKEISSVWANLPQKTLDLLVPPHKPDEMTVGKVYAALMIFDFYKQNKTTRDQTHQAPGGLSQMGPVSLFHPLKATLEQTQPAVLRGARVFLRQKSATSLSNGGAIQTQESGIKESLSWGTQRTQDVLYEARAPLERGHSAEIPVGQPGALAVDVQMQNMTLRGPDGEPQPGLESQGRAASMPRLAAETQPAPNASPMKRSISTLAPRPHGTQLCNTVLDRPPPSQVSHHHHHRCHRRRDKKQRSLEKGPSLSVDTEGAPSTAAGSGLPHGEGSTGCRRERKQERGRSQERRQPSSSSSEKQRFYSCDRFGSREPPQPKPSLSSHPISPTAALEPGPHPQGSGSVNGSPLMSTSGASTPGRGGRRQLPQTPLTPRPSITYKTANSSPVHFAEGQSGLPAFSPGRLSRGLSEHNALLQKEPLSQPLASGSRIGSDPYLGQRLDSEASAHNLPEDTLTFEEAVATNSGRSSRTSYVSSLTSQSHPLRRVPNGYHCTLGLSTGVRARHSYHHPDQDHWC
UniProt P17787, whole entry, looked up: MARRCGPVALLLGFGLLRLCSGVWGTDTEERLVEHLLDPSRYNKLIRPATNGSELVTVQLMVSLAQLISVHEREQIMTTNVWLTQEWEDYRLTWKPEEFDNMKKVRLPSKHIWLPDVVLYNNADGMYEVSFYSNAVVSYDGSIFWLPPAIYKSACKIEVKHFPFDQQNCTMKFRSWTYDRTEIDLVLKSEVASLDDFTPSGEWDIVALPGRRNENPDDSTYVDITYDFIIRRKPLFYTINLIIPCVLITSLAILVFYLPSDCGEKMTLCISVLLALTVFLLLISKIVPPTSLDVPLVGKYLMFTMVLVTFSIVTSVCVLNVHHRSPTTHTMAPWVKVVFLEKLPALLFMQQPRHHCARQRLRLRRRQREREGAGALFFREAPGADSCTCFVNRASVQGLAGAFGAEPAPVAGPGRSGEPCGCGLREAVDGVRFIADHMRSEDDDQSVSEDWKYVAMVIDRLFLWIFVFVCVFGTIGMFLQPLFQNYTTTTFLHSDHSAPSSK
UniProt P32297, whole entry, looked up: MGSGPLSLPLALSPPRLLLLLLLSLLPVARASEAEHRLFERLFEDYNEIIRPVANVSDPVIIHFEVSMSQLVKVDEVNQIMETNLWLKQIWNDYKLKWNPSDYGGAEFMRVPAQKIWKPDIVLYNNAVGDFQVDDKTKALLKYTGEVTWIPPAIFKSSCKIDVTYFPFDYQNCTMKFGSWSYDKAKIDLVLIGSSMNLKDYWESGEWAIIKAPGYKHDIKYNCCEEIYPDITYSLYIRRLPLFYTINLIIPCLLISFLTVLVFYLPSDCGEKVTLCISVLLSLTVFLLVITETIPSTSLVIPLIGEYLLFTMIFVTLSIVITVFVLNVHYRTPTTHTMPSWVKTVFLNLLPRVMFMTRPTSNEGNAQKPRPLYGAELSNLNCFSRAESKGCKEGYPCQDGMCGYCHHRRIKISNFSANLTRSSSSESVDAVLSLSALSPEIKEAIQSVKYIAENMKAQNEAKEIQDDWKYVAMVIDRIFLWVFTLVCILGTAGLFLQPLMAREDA
UniProt P54634, whole entry, looked up: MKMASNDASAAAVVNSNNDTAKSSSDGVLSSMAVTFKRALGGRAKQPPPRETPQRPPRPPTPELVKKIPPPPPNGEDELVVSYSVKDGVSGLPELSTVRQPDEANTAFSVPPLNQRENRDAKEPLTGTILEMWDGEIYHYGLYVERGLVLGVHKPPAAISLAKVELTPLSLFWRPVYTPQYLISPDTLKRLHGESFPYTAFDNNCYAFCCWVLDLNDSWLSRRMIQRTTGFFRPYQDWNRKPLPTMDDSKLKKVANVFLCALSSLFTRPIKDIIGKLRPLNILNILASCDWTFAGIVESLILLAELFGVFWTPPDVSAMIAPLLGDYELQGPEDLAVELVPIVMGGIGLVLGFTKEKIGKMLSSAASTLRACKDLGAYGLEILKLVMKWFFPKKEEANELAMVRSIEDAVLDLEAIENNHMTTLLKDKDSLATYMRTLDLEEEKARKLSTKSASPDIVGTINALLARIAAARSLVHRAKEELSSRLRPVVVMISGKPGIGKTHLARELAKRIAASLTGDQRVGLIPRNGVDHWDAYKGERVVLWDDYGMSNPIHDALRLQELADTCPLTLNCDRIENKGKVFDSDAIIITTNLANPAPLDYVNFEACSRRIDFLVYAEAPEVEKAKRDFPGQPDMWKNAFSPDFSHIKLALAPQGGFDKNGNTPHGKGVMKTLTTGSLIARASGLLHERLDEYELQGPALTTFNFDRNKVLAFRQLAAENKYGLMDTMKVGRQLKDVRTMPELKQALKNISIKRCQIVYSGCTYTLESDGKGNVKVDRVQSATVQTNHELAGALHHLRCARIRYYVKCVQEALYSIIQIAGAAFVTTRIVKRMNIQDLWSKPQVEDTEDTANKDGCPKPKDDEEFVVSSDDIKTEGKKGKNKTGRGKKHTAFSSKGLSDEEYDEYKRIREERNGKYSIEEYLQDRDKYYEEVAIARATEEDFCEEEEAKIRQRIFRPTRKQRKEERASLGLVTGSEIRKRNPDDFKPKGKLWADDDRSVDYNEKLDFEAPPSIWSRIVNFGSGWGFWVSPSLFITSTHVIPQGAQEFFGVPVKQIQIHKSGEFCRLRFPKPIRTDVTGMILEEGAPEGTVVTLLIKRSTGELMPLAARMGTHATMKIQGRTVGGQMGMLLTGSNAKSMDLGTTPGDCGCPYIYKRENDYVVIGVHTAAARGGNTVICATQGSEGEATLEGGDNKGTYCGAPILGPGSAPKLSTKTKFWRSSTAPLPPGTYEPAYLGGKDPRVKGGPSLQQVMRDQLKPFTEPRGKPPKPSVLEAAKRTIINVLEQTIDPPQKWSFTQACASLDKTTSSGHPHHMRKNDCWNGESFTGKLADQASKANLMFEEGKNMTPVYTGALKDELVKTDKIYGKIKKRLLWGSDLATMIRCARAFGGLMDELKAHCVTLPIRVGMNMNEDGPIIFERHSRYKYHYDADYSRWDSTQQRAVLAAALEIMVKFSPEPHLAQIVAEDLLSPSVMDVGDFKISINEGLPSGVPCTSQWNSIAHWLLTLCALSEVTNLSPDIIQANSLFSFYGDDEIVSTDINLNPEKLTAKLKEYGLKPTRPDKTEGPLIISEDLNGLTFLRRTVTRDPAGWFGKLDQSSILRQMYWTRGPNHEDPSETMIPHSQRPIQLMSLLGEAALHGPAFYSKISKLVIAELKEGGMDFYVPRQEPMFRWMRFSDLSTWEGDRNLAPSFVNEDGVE

SMILES | target or system | test | test system | conditions | how to read | measurement | value
O=C(NC1CCN(c2ncnc3[nH]cnc23)CC1)c1cccc(S(=O)(=O)Nc2ccc(Cl)cc2)c1 | SARS-CoV-2 |  | Wuhan-Hu-1 | 0.823 µM | baseline: untreated infected cells | relative infection | 57.4%
Nc1nc2ccccc2n1Cc1ccc(Cl)cc1 | Enoyl-[acyl-carrier-protein] reductase [NADH] (Francisella tularensis subsp. tularensis, UniProt Q5NGQ3) |  |  |  |  | IC50 | > 100000 nM
O=c1c(OCCO)c(SSc2cnn(-c3ccccc3)c(=O)c2OCCO)cnn1-c1ccccc1 | Sortase A (Bacillus anthracis str. H9401, UniProt P0DPQ5) | inhibitor | Bacillus anthracis |  |  | IC50 | 330 ± 140 nM
CC[C@H](C)[C@H](NC(=O)[C@H](C)NC(=O)[C@H](CCC(=O)O)NC(=O)[C@H](CCC(=O)O)NC(=O)[C@H](CC(C)C)NC(=O)[C@H](CCCCN)NC(=O)[C@H](CCCCN)NC(=O)[C@H](CCSC)NC(=O)[C@H](CCC(=O)O)NC(=O)[C@H](Cc1ccc(O)cc1)NC(=O)[C@H](CCC(=O)O)NC(=O)[C@H](CC(C)C)NC(=O)[C@H](CC(=O)O)NC(=O)[C@H](CC(C)C)NC(=O)[C@H](Cc1ccccc1)NC(=O)[C@@H](NC(=O)[C@@H](NC(=O)[C@H](CC(N)=O)NC(=O)[C@@H](NC(=O)[C@H](CCC(N)=O)NC(=O)[C@H](CC(=O)O)NC(=O)[C@H](CC(C)C)NC(=O)[C@@H](N)CO)[C@@H](C)CC)C(C)C)[C@@H](C)O)C(=O)N[C@@H](CCCCN)C(=O)N[C@@H](CCCCN)C(=O)N[C@@H](CC(C)C)C(=O)N[C@@H](CCC(=O)O)C(=O)N[C@@H](CCC(=O)O)C(=O)N[C@@H](CO)C(=O)N[C@@H](Cc1ccc(O)cc1)C(=O)N[C@H](C(=O)N[C@@H](CC(=O)O)C(=O)N[C@@H](CC(C)C)C(=O)N[C@@H](CCCCN)C(=O)N[C@@H](CCC(=O)O)C(=O)N[C@@H](CC(C)C)C(=O)O)[C@@H](C)CC | Spike glycoprotein | cell-cell fusion, inhibitor, luciferase fusion | 293T donor, Huh-7 target | 16 h, 37 °C |  | IC50 | 1660 nM
CN(C)CCCCNC(=O)C[C@H](Cc1ccc(F)cc1)NC(=O)[C@@H](Cc1ccc(Cl)cc1Cl)NC(=O)[C@H](Cc1ccccc1C#N)NC(=O)C(F)(F)F | Replicase polyprotein 1ab, main protease (rep, Severe acute respiratory syndrome coronavirus 2, UniProt P0DTD1) | enzyme activity, inhibitor |  |  |  | IC50 | > 10000 nM
CC[C@H](C)[C@H](NC(=O)[C@H](C)NC(=O)[C@H](CCC(=O)O)NC(=O)[C@H](CCC(=O)O)NC(=O)[C@H](CC(C)C)NC(=O)[C@H](CCCCN)NC(=O)[C@H](CCCCN)NC(=O)[C@H](CCSC)NC(=O)[C@H](CCC(=O)O)NC(=O)[C@H](Cc1ccc(O)cc1)NC(=O)[C@H](CCC(=O)O)NC(=O)[C@H](CC(C)C)NC(=O)[C@H](CC(=O)O)NC(=O)[C@H](CC(C)C)NC(=O)[C@H](Cc1ccccc1)NC(=O)[C@H](Cc1ccc(O)cc1)NC(=O)[C@@H](NC(=O)[C@H](CC(N)=O)NC(=O)[C@@H](NC(=O)[C@H](CCC(N)=O)NC(=O)[C@H](CC(=O)O)NC(=O)[C@H](CC(C)C)NC(=O)[C@@H](N)CO)[C@@H](C)CC)C(C)C)C(=O)N[C@@H](CCCCN)C(=O)N[C@@H](CCCCN)C(=O)N[C@@H](CC(C)C)C(=O)N[C@@H](CCC(=O)O)C(=O)N[C@@H](CCC(=O)O)C(=O)N[C@H](C(=O)N[C@@H](Cc1ccc(O)cc1)C(=O)N[C@H](C(=O)N[C@@H](CC(=O)O)C(=O)N[C@@H](CC(C)C)C(=O)N[C@@H](CCCCN)C(=O)N[C@@H](CCC(=O)O)C(=O)N[C@@H](CC(C)C)C(=O)O)[C@@H](C)CC)[C@@H](C)O | Spike glycoprotein | cell-cell fusion, inhibitor, luciferase fusion | 293T donor, Huh-7 target | 16 h, 37 °C, dual mutations |  | IC50 | 5470 nM
COc1ccc(S(=O)(=O)Nc2cccc(C(=O)NC3CCN(c4ncnc5[nH]cnc45)CC3)c2)cc1 | SARS-CoV-2 |  | Wuhan-Hu-1 | 200 µM | baseline: untreated infected cells | relative infection | 15.1%
C[C@@H](O)[C@@H]1NC(=O)[C@@H]2CSSC[C@H](N)C(=O)N[C@@H](CCCCN)C(=O)N[C@@H](CCCNC(=N)N)C(=O)N[C@@H](CCCCN)C(=O)NCC(=O)N[C@@H](CO)C(=O)N[C@@H](CO)C(=O)N[C@H]3CSSC[C@H](NC(=O)[C@H](CO)NC(=O)CNC1=O)C(=O)N[C@@H](CCCNC(=N)N)C(=O)N[C@@H](CC(N)=O)C(=O)NCC(=O)N[C@@H](CCCCN)C(=O)N[C@H](C(N)=O)CSSC[C@H](NC(=O)[C@H](CC(=O)O)NC(=O)[C@H](Cc1ccc(O)cc1)NC(=O)[C@H](CO)NC(=O)[C@H]([C@@H](C)O)NC(=O)[C@H](CCCNC(=N)N)NC(=O)[C@H](CO)NC3=O)C(=O)N2 | Voltage-dependent N-type calcium channel subunit alpha-1B, with α2δ, β3 subunits (Cacna1b, Rattus norvegicus, UniProt Q02294) | Ba2+ current, inhibitor, whole-cell patch clamp | HEK293 expressing α2δ and β3 | 22 °C, with: Ba2+ 20 mM |  | IC50 | 136 nM
CC[C@H](C)[C@@H]1NC(=O)[C@H](CCC(=O)O)NC(=O)[C@@H]2CCCN2C(=O)[C@H](Cc2c[nH]cn2)NC(=O)[C@H](CC(=O)O)NC(=O)[C@H](C(C)C)NC(=O)[C@H](CC(N)=O)NC(=O)[C@@H]2CSSC[C@H](NC(=O)[C@H](CCC(N)=O)NC(=O)[C@@H]3CCCN3C(=O)[C@@H](N)CCCNC(=N)N)C(=O)N[C@@H](CSSC[C@@H](C(N)=O)NC1=O)C(=O)N[C@@H](CO)C(=O)N[C@@H](Cc1c[nH]cn1)C(=O)N1CCC[C@H]1C(=O)N[C@@H](C)C(=O)N2 | Neuronal acetylcholine receptor; alpha3/beta2 (Homo sapiens, UniProt P17787+P32297) | ACh-evoked current, antagonist, two-electrode voltage clamp | Xenopus oocytes | 5 min, pH 7.4, holding potential -70 mV |  | IC50 | 5400 ± 500 nM
CNc1ccc2c(n1)sc1c(N3CCNCC3)nc(NC)nc12 | Beta-glucuronidase (bglR, Clostridium perfringens, UniProt Q8XP19) | enzyme activity, inhibitor |  |  |  | IC50 | 50.5 ± 0.4 nM
CC[C@H](C)[C@H](NC(=O)[C@H](C)NC(=O)[C@H](CCC(=O)O)NC(=O)[C@H](CCC(=O)O)NC(=O)[C@H](CC(C)C)NC(=O)[C@H](CCCCN)NC(=O)[C@H](CCCCN)NC(=O)[C@H](CCSC)NC(=O)[C@H](CCC(=O)O)NC(=O)[C@H](Cc1ccc(O)cc1)NC(=O)[C@H](CCC(=O)O)NC(=O)[C@H](CC(C)C)NC(=O)[C@H](CC(=O)O)NC(=O)[C@H](CC(C)C)NC(=O)[C@H](Cc1ccccc1)NC(=O)[C@@H](NC(=O)[C@@H](NC(=O)[C@H](CC(N)=O)NC(=O)[C@@H](NC(=O)[C@H](CCC(N)=O)NC(=O)[C@H](CC(=O)O)NC(=O)[C@H](CC(C)C)NC(=O)[C@H](CO)NC(=O)[C@H](CC(C)C)NC(=O)[C@H](CC(=O)O)NC(=O)[C@@H]1CCCN1C(=O)[C@H](C)N)[C@@H](C)CC)C(C)C)[C@@H](C)O)C(=O)N[C@@H](CCCCN)C(=O)N[C@@H](CCCCN)C(=O)N[C@@H](CC(C)C)C(=O)N[C@@H](CCC(=O)O)C(=O)N[C@@H](CCC(=O)O)C(=O)N[C@@H](CO)C(=O)N[C@@H](Cc1ccc(O)cc1)C(=O)N[C@H](C(=O)N[C@@H](CC(=O)O)C(=O)N[C@@H](CC(C)C)C(=O)N[C@@H](CCCCN)C(=O)N[C@@H](CCC(=O)O)C(=O)N[C@@H](CC(C)C)C(=O)O)[C@@H](C)CC | Spike glycoprotein Beta variant | cell-cell fusion, inhibitor, luciferase fusion | 293T donor, Huh-7 target | 16 h, 37 °C |  | IC50 | 20.6 nM
Cc1cccc(CN2CCN(C(c3ccccc3)c3ccc(Cl)cc3)CC2)c1 (centres unmarked) | Replicase polyprotein 1ab, nsp14 (rep, Severe acute respiratory syndrome-related coronavirus, UniProt P0C6X7) | enzyme activity, inhibitor |  |  |  | IC50 | 6200 ± 400 nM
CC[C@H](C)[C@H](NC(=O)[C@H](C)NC(=O)[C@H](CCC(=O)O)NC(=O)[C@H](CCC(=O)O)NC(=O)[C@H](CC(C)C)NC(=O)[C@H](CCCCN)NC(=O)[C@H](CCCCN)NC(=O)[C@H](CCSC)NC(=O)[C@H](CCC(=O)O)NC(=O)[C@H](Cc1ccc(O)cc1)NC(=O)[C@H](CCC(=O)O)NC(=O)[C@H](CC(C)C)NC(=O)[C@H](CC(=O)O)NC(=O)[C@H](CC(C)C)NC(=O)[C@H](Cc1ccccc1)NC(=O)[C@@H](NC(=O)[C@@H](NC(=O)[C@H](CC(N)=O)NC(=O)[C@@H](NC(=O)[C@H](CCC(N)=O)NC(=O)[C@H](CC(=O)O)NC(=O)[C@H](CC(C)C)NC(=O)[C@@H](N)CO)[C@@H](C)CC)C(C)C)[C@@H](C)O)C(=O)N[C@@H](CCCCN)C(=O)N[C@@H](CCCCN)C(=O)N[C@@H](CC(C)C)C(=O)N[C@@H](CCC(=O)O)C(=O)N[C@@H](CCC(=O)O)C(=O)N[C@@H](C)C(=O)N[C@@H](Cc1ccc(O)cc1)C(=O)N[C@H](C(=O)N[C@@H](CC(=O)O)C(=O)N[C@@H](CC(C)C)C(=O)N[C@@H](CCCCN)C(=O)N[C@@H](CCC(=O)O)C(=O)N[C@@H](CC(C)C)C(=O)O)[C@@H](C)CC | Spike glycoprotein Beta variant | cell-cell fusion, inhibitor, luciferase fusion | 293T donor, Huh-7 target | 16 h, 37 °C |  | IC50 | 106 nM
Cc1cc(C(=O)N[C@@H](Cc2cccc3ccccc23)C(=O)N[C@@H](CC(C)C)C(=O)N[C@H](C=O)C[C@@H]2CCCNC2=O)no1 | Genome polyprotein, 3C-like protease (Lordsdale virus, UniProt P54634) | enzyme activity |  |  |  | IC50 | 320 ± 20 nM

Some of these lines once more:
SMILES | target or system | test | test system | conditions | how to read | measurement | value
CC[C@H](C)[C@H](NC(=O)[C@H](C)NC(=O)[C@H](CCC(=O)O)NC(=O)[C@H](CCC(=O)O)NC(=O)[C@H](CC(C)C)NC(=O)[C@H](CCCCN)NC(=O)[C@H](CCCCN)NC(=O)[C@H](CCSC)NC(=O)[C@H](CCC(=O)O)NC(=O)[C@H](Cc1ccc(O)cc1)NC(=O)[C@H](CCC(=O)O)NC(=O)[C@H](CC(C)C)NC(=O)[C@H](CC(=O)O)NC(=O)[C@H](CC(C)C)NC(=O)[C@H](Cc1ccccc1)NC(=O)[C@H](Cc1ccc(O)cc1)NC(=O)[C@@H](NC(=O)[C@H](CC(N)=O)NC(=O)[C@@H](NC(=O)[C@H](CCC(N)=O)NC(=O)[C@H](CC(=O)O)NC(=O)[C@H](CC(C)C)NC(=O)[C@@H](N)CO)[C@@H](C)CC)C(C)C)C(=O)N[C@@H](CCCCN)C(=O)N[C@@H](CCCCN)C(=O)N[C@@H](CC(C)C)C(=O)N[C@@H](CCC(=O)O)C(=O)N[C@@H](CCC(=O)O)C(=O)N[C@H](C(=O)N[C@@H](Cc1ccc(O)cc1)C(=O)N[C@H](C(=O)N[C@@H](CC(=O)O)C(=O)N[C@@H](CC(C)C)C(=O)N[C@@H](CCCCN)C(=O)N[C@@H](CCC(=O)O)C(=O)N[C@@H](CC(C)C)C(=O)O)[C@@H](C)CC)[C@@H](C)O | Spike glycoprotein | cell-cell fusion, inhibitor, luciferase fusion | 293T donor, Huh-7 target | 16 h, 37 °C, dual mutations |  | IC50 | 5470 nM
CC[C@H](C)[C@H](NC(=O)[C@H](C)NC(=O)[C@H](CCC(=O)O)NC(=O)[C@H](CCC(=O)O)NC(=O)[C@H](CC(C)C)NC(=O)[C@H](CCCCN)NC(=O)[C@H](CCCCN)NC(=O)[C@H](CCSC)NC(=O)[C@H](CCC(=O)O)NC(=O)[C@H](Cc1ccc(O)cc1)NC(=O)[C@H](CCC(=O)O)NC(=O)[C@H](CC(C)C)NC(=O)[C@H](CC(=O)O)NC(=O)[C@H](CC(C)C)NC(=O)[C@H](Cc1ccccc1)NC(=O)[C@@H](NC(=O)[C@@H](NC(=O)[C@H](CC(N)=O)NC(=O)[C@@H](NC(=O)[C@H](CCC(N)=O)NC(=O)[C@H](CC(=O)O)NC(=O)[C@H](CC(C)C)NC(=O)[C@H](CO)NC(=O)[C@H](CC(C)C)NC(=O)[C@H](CC(=O)O)NC(=O)[C@@H]1CCCN1C(=O)[C@H](C)N)[C@@H](C)CC)C(C)C)[C@@H](C)O)C(=O)N[C@@H](CCCCN)C(=O)N[C@@H](CCCCN)C(=O)N[C@@H](CC(C)C)C(=O)N[C@@H](CCC(=O)O)C(=O)N[C@@H](CCC(=O)O)C(=O)N[C@@H](CO)C(=O)N[C@@H](Cc1ccc(O)cc1)C(=O)N[C@H](C(=O)N[C@@H](CC(=O)O)C(=O)N[C@@H](CC(C)C)C(=O)N[C@@H](CCCCN)C(=O)N[C@@H](CCC(=O)O)C(=O)N[C@@H](CC(C)C)C(=O)O)[C@@H](C)CC | Spike glycoprotein Beta variant | cell-cell fusion, inhibitor, luciferase fusion | 293T donor, Huh-7 target | 16 h, 37 °C |  | IC50 | 20.6 nM
